Results gathered from unrelated publications.
Protocols differ between the studies behind these lines. ± gives the spread as reported.
CNR1: Cannabinoid receptor 1 (CNR1, Homo sapiens, UniProt P21554)
UniProt P21554, sequence (whole entry, unmodified, looked up): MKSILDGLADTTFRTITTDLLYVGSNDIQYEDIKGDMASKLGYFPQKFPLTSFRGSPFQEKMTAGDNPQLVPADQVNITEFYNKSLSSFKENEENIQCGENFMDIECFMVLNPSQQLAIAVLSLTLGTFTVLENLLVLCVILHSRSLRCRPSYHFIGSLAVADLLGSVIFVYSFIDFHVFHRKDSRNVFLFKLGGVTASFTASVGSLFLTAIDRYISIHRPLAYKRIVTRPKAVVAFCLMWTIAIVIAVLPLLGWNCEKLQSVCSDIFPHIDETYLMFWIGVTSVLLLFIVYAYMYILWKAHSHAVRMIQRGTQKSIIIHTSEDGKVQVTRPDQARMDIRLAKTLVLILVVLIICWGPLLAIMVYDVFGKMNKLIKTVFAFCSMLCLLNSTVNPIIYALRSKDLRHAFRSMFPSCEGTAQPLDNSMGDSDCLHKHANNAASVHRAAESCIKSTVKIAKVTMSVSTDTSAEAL
CNR1 V171A: Cannabinoid receptor 1 (CNR1, Homo sapiens, UniProt P21554, V171A)

For `CCCCCn1ccc(C(=O)NC(C)(C)c2ccccc2C)n1`, the Emax was 42% (CNR1; calcium signal, agonist, fluorescence).
`O=[N+]([O-])CC(c1ccco1)c1c(-c2ccccc2)[nH]c2ccccc12` (stereo not shown) has an Emax of 100 ± 6.15% (CNR1; Gαi1-γ2 dissociation, BRET).
`CCCCCn1cc(C(=O)c2ccc3ccccc3c2)c2ccccc21` has an Emax of 30.5 ± 2.6% (CNR1 (Homo sapiens, UniProt P21554, H178A); Gαi1 engagement, agonist, BRET; reference: reference agonist at wild-type CB1).
With `CCCCCn1ccc(C(=O)NC(C)(C)c2ccccc2F)n1` the Emax was 65% (CNR1; calcium signal, agonist, fluorescence).
`COC(=O)[C@@H](NC(=O)c1nn(Cc2ccc(F)cc2)c2cc(OCCCCNC(=N)N)ccc12)C(C)(C)C` has an Emax of < 20% (CNR1; β-arrestin-1 recruitment, agonist; reference: FUB).
`CCCCCn1ccc(C(=O)NC(C)(C)c2ccccc2)n1` has an Emax of 61% (CNR1; calcium signal, agonist, fluorescence).
`Cc1ccc2c(C(C[N+](=O)[O-])c3cccs3)c(-c3ccccc3)[nH]c2c1` (stereo not shown) gave an Emax of 67.4 ± 4.78% (CNR1 V171A; Gαi1-γ2 dissociation, BRET).
`COC(=O)[C@@H](NC(=O)c1nn(Cc2ccc(F)cc2)c2cc(OCCCCNC(N)=O)ccc12)C(C)(C)C` has an Emax of 200% (CNR1; β-arrestin recruitment, agonist, BRET).
`CCCCCn1ccc(C(=O)N[C@@H](C)c2ccccc2)n1` gave an Emax of 28% (CNR1; calcium signal, agonist, fluorescence).
With `CCCCCn1cc(C(=O)c2ccc3c(c2)CC(C)(C)C3)c2ccccc21` the Emax was 80.9 ± 12.5% (CNR1; cAMP inhibition, agonist, CAMYEL BRET biosensor; together with: forskolin 10 µM; reference: reference agonist at wild type).
With `CCOC(=O)C(CC)(CC)NC(=O)c1ccc(C2CC2)c(Cc2ccc(F)cc2)n1` the Emax was 99% (CNR1; cAMP, agonist).
With `COc1ccccc1C(C[N+](=O)[O-])c1c(-c2ccccc2)[nH]c2ccccc12` (stereo not shown) the Emax was 67.4 ± 6.48% (CNR1 V171A; Gαi1-γ2 dissociation, BRET).
The Emax of `CCCCCn1cc(C(=O)c2cccc3ccccc23)c2ccccc21` is reported as 144 ± 9.2% (CNR1; Gαi1 activation, agonist, BRET; reference: reference agonist).

For quick reference, copied from above:
The Emax of `CCCCCn1cc(C(=O)c2cccc3ccccc23)c2ccccc21` is reported as 144 ± 9.2% (CNR1; Gαi1 activation, agonist, BRET; reference: reference agonist).
